Measured values pooled from the literature.
Lines come from different studies, so protocols differ. ± marks the error that the study gave.
BACE1: Beta-secretase 1 (BACE1, Homo sapiens, UniProt P56817)
UniProt P56817, sequence (whole entry, looked up): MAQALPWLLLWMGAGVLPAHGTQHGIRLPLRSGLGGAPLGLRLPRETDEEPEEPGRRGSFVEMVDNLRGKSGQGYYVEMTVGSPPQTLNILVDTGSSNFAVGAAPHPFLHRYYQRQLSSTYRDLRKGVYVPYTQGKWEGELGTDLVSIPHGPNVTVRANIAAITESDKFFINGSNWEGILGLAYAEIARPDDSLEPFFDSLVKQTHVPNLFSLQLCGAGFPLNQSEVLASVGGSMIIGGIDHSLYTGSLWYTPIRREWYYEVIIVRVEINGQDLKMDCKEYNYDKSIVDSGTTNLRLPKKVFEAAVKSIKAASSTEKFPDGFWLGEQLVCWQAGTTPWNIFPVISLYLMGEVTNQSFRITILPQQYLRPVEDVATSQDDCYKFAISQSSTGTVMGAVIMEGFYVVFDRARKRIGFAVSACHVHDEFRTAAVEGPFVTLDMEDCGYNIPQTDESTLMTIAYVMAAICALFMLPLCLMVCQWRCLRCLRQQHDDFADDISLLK
ALPI: Intestinal-type alkaline phosphatase (ALPI, Bos taurus, UniProt P19111)
UniProt P19111, sequence (whole entry, looked up): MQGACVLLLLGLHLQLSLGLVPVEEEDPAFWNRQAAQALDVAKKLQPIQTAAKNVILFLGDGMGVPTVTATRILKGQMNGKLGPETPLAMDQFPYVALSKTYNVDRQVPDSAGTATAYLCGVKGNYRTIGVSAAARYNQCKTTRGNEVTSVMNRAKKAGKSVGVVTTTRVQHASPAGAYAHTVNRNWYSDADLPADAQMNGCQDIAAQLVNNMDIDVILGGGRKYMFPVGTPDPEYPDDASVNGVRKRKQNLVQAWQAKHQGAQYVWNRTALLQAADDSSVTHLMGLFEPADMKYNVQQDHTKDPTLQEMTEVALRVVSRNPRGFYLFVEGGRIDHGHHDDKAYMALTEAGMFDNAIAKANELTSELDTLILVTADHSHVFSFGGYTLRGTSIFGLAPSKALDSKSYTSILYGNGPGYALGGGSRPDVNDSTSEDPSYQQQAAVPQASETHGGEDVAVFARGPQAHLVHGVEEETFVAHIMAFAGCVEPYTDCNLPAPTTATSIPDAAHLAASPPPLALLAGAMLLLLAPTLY
EGLN1: Egl nine homolog 1 (EGLN1, Homo sapiens, UniProt Q9GZT9)
UniProt Q9GZT9, sequence (whole entry, looked up): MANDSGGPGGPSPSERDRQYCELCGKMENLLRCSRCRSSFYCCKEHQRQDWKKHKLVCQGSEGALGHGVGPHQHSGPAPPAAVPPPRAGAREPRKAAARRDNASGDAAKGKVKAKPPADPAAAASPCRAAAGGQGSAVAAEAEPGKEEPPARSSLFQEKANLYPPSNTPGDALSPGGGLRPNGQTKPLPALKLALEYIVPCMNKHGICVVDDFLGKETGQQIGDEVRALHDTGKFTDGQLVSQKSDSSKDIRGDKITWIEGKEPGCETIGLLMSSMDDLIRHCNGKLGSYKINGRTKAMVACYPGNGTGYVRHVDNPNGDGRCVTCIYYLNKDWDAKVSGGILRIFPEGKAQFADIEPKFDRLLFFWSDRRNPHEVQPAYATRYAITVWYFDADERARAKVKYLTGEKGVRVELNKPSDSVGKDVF
Kir3.1/Kir3.2: Kir3.1/Kir3.2 (Homo sapiens, UniProt P48051+P48549)
UniProt P48549, sequence (whole entry, looked up): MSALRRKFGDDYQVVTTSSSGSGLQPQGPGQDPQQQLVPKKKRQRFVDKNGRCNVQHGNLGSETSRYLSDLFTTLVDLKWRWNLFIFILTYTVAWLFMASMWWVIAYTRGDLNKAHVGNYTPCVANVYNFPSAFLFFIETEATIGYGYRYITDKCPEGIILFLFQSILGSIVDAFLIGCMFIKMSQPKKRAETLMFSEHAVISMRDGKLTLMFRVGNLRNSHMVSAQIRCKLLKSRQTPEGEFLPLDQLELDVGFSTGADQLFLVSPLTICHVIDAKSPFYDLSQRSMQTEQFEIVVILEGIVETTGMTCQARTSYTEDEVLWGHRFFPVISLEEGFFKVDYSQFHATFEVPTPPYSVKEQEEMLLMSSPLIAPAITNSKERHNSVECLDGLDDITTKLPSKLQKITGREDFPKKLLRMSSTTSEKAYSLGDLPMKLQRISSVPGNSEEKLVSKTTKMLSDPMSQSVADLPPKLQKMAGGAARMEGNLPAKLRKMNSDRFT
UniProt P48051, sequence (whole entry, looked up): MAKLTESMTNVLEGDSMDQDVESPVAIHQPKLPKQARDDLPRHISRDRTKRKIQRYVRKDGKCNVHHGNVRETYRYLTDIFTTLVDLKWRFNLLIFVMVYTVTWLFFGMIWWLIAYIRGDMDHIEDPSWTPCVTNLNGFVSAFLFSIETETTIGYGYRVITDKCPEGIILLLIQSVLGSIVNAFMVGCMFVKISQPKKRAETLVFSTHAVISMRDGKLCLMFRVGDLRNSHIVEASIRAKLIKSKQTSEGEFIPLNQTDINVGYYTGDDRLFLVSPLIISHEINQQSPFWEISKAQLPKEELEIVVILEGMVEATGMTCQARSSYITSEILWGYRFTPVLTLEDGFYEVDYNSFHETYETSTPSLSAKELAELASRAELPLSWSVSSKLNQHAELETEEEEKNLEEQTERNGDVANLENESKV
HDAC1: Histone deacetylase 1 (HDAC1, Homo sapiens, UniProt Q13547)
Ephx2: Bifunctional epoxide hydrolase 2 (Ephx2, Mus musculus, UniProt P34914)
UniProt P34914, sequence (whole entry, looked up): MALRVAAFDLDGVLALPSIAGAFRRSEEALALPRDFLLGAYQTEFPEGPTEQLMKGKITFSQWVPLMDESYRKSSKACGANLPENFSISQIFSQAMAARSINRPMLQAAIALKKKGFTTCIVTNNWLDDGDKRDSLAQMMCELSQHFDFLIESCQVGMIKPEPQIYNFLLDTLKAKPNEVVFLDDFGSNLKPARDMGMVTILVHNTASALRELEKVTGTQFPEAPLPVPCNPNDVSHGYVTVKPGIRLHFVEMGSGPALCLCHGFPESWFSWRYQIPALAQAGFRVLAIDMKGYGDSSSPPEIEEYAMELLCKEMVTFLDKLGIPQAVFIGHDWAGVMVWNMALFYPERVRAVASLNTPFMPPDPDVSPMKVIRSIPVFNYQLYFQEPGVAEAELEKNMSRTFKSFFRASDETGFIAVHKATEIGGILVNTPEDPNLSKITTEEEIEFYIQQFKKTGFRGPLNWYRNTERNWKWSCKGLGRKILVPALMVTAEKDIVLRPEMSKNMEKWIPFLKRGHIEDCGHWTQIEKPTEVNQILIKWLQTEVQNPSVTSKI
Grik2: Glutamate receptor ionotropic, kainate 2 (Grik2, Rattus norvegicus, UniProt P42260)
UniProt P42260, sequence (whole entry, looked up): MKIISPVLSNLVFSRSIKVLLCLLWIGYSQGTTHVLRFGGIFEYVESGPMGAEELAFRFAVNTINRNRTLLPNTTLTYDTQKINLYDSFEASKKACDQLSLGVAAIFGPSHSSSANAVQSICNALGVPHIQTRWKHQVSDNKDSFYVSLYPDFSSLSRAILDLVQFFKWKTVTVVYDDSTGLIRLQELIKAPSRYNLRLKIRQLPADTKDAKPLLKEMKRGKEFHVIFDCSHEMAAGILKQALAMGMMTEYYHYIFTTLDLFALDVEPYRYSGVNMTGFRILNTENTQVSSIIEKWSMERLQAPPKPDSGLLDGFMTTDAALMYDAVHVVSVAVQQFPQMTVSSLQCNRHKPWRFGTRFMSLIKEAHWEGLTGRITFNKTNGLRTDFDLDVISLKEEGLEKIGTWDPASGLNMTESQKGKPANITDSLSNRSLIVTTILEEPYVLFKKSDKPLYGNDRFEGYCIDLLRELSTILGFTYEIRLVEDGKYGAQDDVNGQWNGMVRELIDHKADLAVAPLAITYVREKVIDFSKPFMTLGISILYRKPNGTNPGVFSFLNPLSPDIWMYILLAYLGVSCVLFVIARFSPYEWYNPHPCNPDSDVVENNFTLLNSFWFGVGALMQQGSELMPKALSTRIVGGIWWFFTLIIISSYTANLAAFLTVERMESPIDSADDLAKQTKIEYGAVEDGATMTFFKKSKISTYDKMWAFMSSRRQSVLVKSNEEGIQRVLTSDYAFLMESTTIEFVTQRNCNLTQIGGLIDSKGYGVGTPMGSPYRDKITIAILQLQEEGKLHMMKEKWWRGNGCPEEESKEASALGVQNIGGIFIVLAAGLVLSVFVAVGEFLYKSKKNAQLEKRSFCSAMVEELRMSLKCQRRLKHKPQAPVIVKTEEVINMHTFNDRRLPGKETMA
UniProt P40763, sequence (whole entry, looked up): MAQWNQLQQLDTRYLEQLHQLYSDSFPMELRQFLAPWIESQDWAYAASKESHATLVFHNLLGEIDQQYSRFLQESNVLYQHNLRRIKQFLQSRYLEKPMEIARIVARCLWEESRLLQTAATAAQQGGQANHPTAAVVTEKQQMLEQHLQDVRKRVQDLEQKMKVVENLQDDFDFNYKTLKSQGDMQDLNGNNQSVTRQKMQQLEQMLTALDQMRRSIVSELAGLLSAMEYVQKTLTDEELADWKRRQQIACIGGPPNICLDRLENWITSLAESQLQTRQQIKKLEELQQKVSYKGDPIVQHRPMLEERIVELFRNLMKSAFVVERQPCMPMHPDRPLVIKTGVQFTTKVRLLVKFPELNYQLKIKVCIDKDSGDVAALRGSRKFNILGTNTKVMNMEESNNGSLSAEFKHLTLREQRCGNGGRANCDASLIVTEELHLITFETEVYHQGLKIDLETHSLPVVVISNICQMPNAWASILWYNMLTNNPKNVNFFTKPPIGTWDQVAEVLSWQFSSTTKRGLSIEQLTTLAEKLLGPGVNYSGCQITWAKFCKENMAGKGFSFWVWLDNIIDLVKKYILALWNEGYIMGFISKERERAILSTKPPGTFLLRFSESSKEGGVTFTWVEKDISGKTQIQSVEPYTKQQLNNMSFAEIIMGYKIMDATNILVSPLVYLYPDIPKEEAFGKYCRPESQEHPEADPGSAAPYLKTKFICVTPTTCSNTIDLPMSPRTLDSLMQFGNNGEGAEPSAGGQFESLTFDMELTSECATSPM
UniProt P0ABP8, sequence (whole entry, looked up): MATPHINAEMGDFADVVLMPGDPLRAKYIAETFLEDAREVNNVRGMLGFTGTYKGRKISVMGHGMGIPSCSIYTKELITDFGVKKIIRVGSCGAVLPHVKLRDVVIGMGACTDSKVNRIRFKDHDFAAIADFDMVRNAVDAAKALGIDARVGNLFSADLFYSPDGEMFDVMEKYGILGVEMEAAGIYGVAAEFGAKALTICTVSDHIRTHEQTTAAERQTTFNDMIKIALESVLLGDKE

Compound = CN1CCCN(C(=O)c2cccc(-c3ccc(/C=C4/C(=O)Nc5ccc(Cl)cc54)o3)c2)CC1; target = Casein kinase II subunit alpha (CSNK2A1, Homo sapiens, UniProt P68400); assay = enzyme activity, inhibitor; IC50 = 3.9 µM
Compound = CC(C)C[C@H](NC(=O)N1CCOCC1)C(=O)N[C@H](/C=C/S(=O)(=O)c1ccccc1)CCc1ccccc1; target = Cathepsin B (CTSB, Bos taurus, UniProt P07688); assay = enzyme activity, inhibitor, fluorescence; setting = pH 5.5, with preincubation; IC50 = 1.12 µM
Compound = O=C1CSC2(CCN(CCCN3c4ccccc4Sc4ccc(Cl)cc43)CC2)N1; target = BACE1; assay = inhibitor, FRET; setting = pH 4.5; IC50 = 6.6 ± 0.3 µM
Compound = COc1ccc(N2CC3=C(C2=O)C(c2ccc(O)cc2)NC(=O)N3)cc1 (stereo not shown); target = ALPI; assay = enzyme activity, inhibitor, absorbance; setting = pH 9.5; IC50 = 9.44 µM
Compound = CCOC(=O)CC[C@@H](C)[C@H]1CC[C@H]2[C@@H]3CC[C@@H]4C[C@H](OC(=O)CCCCCC(=O)O)CC[C@]4(C)[C@H]3CC[C@]12C; target = human 20S proteasome; assay = chymotrypsin-like activity, inhibitor; setting = added: PA28; IC50 = > 10 µM
Compound = CN(c1ccccc1Cl)S(=O)(=O)C1CC2OC1C(c1ccc(O)cc1)=C2c1ccc(O)cc1 (stereo not shown); target = Estrogen receptor beta (ESR2, Homo sapiens, UniProt Q92731); assay = reporter gene, antagonist, luciferase; IC50 = 0.12 µM
Compound = O=C(O)CCC(=O)NNC(=O)c1cc2c(cn1)[nH]c1ccccc12; target = EGLN1; assay = inhibitor, AlphaScreen; setting = bimodal curve, rough estimate, added: 2 µM 2-oxoglutarate; IC50 = 0.4 µM
Compound = Cn1nc(COCCO)c2ncnnc21; target = deoD (Escherichia coli, UniProt P0ABP8); assay = enzyme activity, inhibitor; setting = pH 7.0, 25 °C, 50 mM phosphate, added: 7-methylguanosine 131 µM; IC50 = > 300 µM
Compound = O=C(N[C@@H](Cc1c[nH]c2ccccc12)C(=O)O)OCC1c2ccccc2-c2ccccc21; target = Bifunctional epoxide hydrolase 2, N-terminal phosphatase domain (Ephx2, Mus musculus, UniProt P34914); assay = N-terminal phosphatase activity; test system = mouse; setting = 10 min preincubation, added: AttoPhos 15 µM; IC50 = 4 µM
Compound = COc1cc(/C=C/C(C)=N/O)ccc1OCC(=O)Nc1ccc(C)cc1; target = Peroxisome proliferator-activated receptor gamma (PPARG, Homo sapiens, UniProt P37231); assay = ligand displacement, TR-FRET; IC50 = 17.3 µM
Compound = COc1cc(/C=C/C(=O)N2CCC=CC2=O)cc(OC)c1OC; target = Signal transducer and activator of transcription 3 (STAT3, Homo sapiens, UniProt P40763); assay = protein-protein interaction, inhibitor, SPR; IC50 = 1.5 µM
Compound = N=c1n(Cc2ccccc2)c2ccccc2n1CC(O)COc1ccc(Cl)cc1 (stereo not shown); target = Kir3.1/Kir3.2; assay = ion flux; IC50 = 2.9 µM
Compound = O=C1NC(=O)/C(=C/c2ccc3c(c2)OCO3)S1; target = Phosphatidylinositol 4,5-bisphosphate 3-kinase catalytic subunit alpha isoform (PIK3CA, Homo sapiens, UniProt P42336); assay = enzyme activity, inhibitor; IC50 = 0.05 µM
Compound = C=C(C)CCOP(=O)(O)OP(=O)(O)OP(=O)(O)OC[C@H]1O[C@@H](n2cnc3c(N)ncnc32)[C@H](O)[C@@H]1O; target = Receptor tyrosine-protein kinase erbB-4 (ERBB4, Homo sapiens, UniProt Q15303); assay = enzyme activity, inhibitor, HotSpot kinase; setting = added: ATP 1 µM; IC50 = 2.7 µM
Compound = Cc1cc(Cc2cc(C)cc(C(C)(C)C)c2O)c(O)c(Cc2cc(C)cc(C(C)(C)C)c2O)c1; target = BACE1; assay = enzyme activity, inhibitor, FRET; setting = pH 4.5; IC50 = 292 µM
Compound = O=C(Nc1cc(F)c(F)c(F)c1Br)c1cc(S(=O)(=O)N2CCOCC2)c(Cl)cc1Cl; target = Lysophosphatidic acid receptor 5 (LPAR5, Homo sapiens, UniProt Q9H1C0); assay = Ca2+ mobilization, antagonist; test system = B103; setting = added: LPA at EC50; IC50 = > 100 µM
Compound = Cc1ccc(C#N)c(=O)[nH]1; target = EGLN1; assay = ODDD peptide hydroxylation, inhibitor, MALDI-TOF MS; setting = pH 7.00, 37.0 °C, added: 2-oxoglutarate 10 µM; IC50 = > 1000 µM
Compound = O=C(OC(C(F)(F)F)C(F)(F)F)N1Cc2ccc(OCCN3CCOCC3)cc2C1; target = Monoacylglycerol lipase ABHD6 (ABHD6, Homo sapiens, UniProt Q9BV23); assay = enzyme activity, inhibitor, fluorescence substrate; IC50 = 0.008 ± 0.0006 µM
Compound = Oc1cccn(Cc2ccc(-c3ccncc3)cc2)c1=S; target = HDAC1; assay = enzyme activity, inhibitor, SAMDI mass spectrometry; IC50 = > 10 µM
Compound = CCOc1ncc(C)c2c1[C@H](c1ccc(C#N)cc1OC)C(C(N)=O)=C(C)N2; target = Broad substrate specificity ATP-binding cassette transporter ABCG2 (ABCG2, Homo sapiens, UniProt Q9UNQ0); assay = transport, inhibitor, Transwell transport; test system = MDCKII expressing human ABCG2; setting = added: PhIP 2 µM or topotecan 2 µM; IC50 = 17.4 µM
Compound = O=C(CCCCCCNC(=O)[C@H]1CCCN(C(=O)c2ccc(NC(=O)Nc3ccc(OC(F)(F)F)c(Cl)c3)c(F)c2)C1)NO; target = Ephx2; assay = enzyme activity, inhibitor, fluorescence; IC50 = 0.0009 µM
Compound = O=C(c1cccnc1)c1conc1C(=O)c1ccc(Br)cc1; target = Serine/threonine-protein kinase pim-1 (PIM1, Homo sapiens, UniProt P11309); assay = kinase activity, inhibitor, ADP-Glo; IC50 = 1.5 ± 0.4 µM
Compound = O=C(O)c1ccccc1-n1c(/C=C/c2cccc([N+](=O)[O-])c2)nc2ccccc2c1=O; target = Grik2; assay = ion current, inhibitor, two-electrode voltage clamp; test system = Xenopus oocytes; setting = concanavalin A pretreatment, added: 100 µM glutamate; IC50 = > 300 µM
Compound = N#Cc1ccc(-c2ccc(Cn3cccc(O)c3=S)cc2)cc1; target = HDAC1; assay = enzyme activity, inhibitor, SAMDI mass spectrometry; IC50 = > 10 µM
Compound = COc1ccccc1-n1c(/C=C/c2ccc([N+](=O)[O-])cc2)nc2ccccc2c1=O; target = Grik2; assay = ion current, inhibitor, two-electrode voltage clamp; test system = Xenopus oocytes; setting = concanavalin A pretreatment, added: 100 µM glutamate; IC50 = > 300 µM
Compound = CCCCCCCCCCCCCCCC(=O)OCc1cc(=O)c(OC(=O)CCCCCCCCCCCCCCC)co1; target = mushroom tyrosinase; assay = inhibitor; setting = added: L-tyrosine; IC50 = > 2000 µM
Compound = C[C@H](NC(=O)C[C@H](CC(=O)NC(C)(C)C)NC(=O)CCc1ccccc1)C(=O)NCc1cccc2ccccc12; target = Proteasome component C5/PSMB8 (Homo sapiens, UniProt P20618+P28062); assay = chymotrypsin-like activity, inhibitor; setting = added: ac-ANW-AMC; IC50 = 3.35 ± 0.64 µM
Compound = Cc1occc(=O)c1O; target = EGLN1; assay = ODDD peptide hydroxylation, inhibitor, MALDI-TOF; setting = first site of biphasic curve, added: 2-oxoglutarate 10 µM; IC50 = 16 µM
Compound = CCCCC[C@H](CC(=O)NO)C(=O)N[C@H](C(=O)N1CCC[C@H]1CO)C(C)C; target = Meprin A subunit beta (MEP1B, Homo sapiens, UniProt Q16820); assay = enzyme activity, inhibitor, FRET; IC50 = 3 to 5 µM
Compound = Nc1ccc(C(=O)O)cc1; target = mushroom tyrosinase; assay = monophenolase activity, inhibitor; setting = pH 6.8, 20 °C, added: p-coumaric acid substrate; IC50 = 3.8 µM
Compound = COc1cccc(CNC(=O)C#Cc2cn(Cc3ccc(C(=O)O)cc3)c(=O)[nH]c2=O)c1; target = Collagenase 3 (MMP13, Homo sapiens, UniProt P45452); assay = enzyme activity, inhibitor; IC50 = 0.0109 µM
Compound = COc1ccc(C(Nc2ccccn2)c2oc(CO)cc(=O)c2O)cc1 (stereo not shown); target = Signal transducer and activator of transcription 3, phosphorylated homodimer (STAT3, Homo sapiens, UniProt P40763); assay = DNA binding, EMSA; IC50 = 30 to 50 µM
Compound = COc1ccc(-n2c(/C=C/c3ccc([N+](=O)[O-])cc3)nc3ccccc3c2=O)cc1; target = Grik2; assay = ion current, inhibitor, two-electrode voltage clamp; test system = Xenopus oocytes; setting = concanavalin A pretreatment, added: 100 µM glutamate; IC50 = > 300 µM
Compound = CC(=O)N[C@H]1[C@@H](O[C@H]2[C@H](O)[C@@H](O)[C@H](O[C@H]3[C@H](O)[C@@H](NC(C)=O)[C@@H](OCCCCCN)O[C@@H]3COS(=O)(=O)O)O[C@@H]2C(=O)O)O[C@H](COS(=O)(=O)O)[C@@H](O[C@@H]2O[C@H](C(=O)O)[C@@H](O)[C@H](O)[C@H]2O)[C@@H]1O; target = BACE1; assay = enzyme activity, inhibitor, FRET; setting = pH 4.5; IC50 = 35 µM
Compound = CCCC[C@H](NC(=O)CNC(=O)[C@H](CCCCN)NC(=O)[C@@H](NC(=O)[C@H](CCC(=O)O)NC(=O)CNC(=O)[C@H](CCCNC(=N)N)NC(=O)[C@@H]1CCCN1C(=O)[C@H](CCCCN)NC(=O)[C@@H](N)CCCCN)[C@@H](C)O)C(=O)N[C@H](C(=O)N[C@@H](Cc1ccc(O)cc1)C(N)=O)[C@@H](C)CC; target = human 20S proteasome (latent); assay = trypsin-like activity, inhibitor; setting = 10 min preincubation, pH 8.0, 37 °C, added: Boc-LRR-MCA; IC50 = 0.35 µM
Compound = C[C@]12C[C@@H]3C[C@](C)(C1)C[C@@](NC(=O)Nc1ccc(C(=O)N4CCC[C@H](C(=O)NCCCCCCC(=O)NO)C4)cc1)(C3)C2; target = Ephx2; assay = enzyme activity, inhibitor, fluorescence; IC50 = 0.0025 µM
Compound = Cc1cc(C(C)Nc2ccccc2)c2nc(N3CCOCC3)cc(=O)n2c1 (stereo not shown); target = Phosphatidylinositol 4,5-bisphosphate 3-kinase catalytic subunit alpha isoform (PIK3CA, Homo sapiens, UniProt P42336, H855E); assay = enzyme activity, inhibitor; IC50 = 1.4 µM
Compound = O=C1CCCCCCCCCCCCCCO1; target = Liver carboxylesterase (Sus scrofa, UniProt Q29550); assay = enzyme activity, inhibitor; setting = with preincubation; IC50 = 364 µM
Compound = O=C1NC2=C(C(=O)N(Cc3ccccc3)C2)C(c2ccccc2O)N1 (stereo not shown); target = ALPI; assay = enzyme activity, inhibitor, absorbance; setting = pH 9.5; IC50 = 7.68 µM
Compound = Cc1cc(C)cc(OCC(O)Cn2c(=N)n(Cc3ccccc3)c3ccccc32)c1 (stereo not shown); target = Kir3.1/Kir3.2; assay = ion flux; IC50 = 4.33 µM

Some of these lines once more:
Compound = O=C(Nc1cc(F)c(F)c(F)c1Br)c1cc(S(=O)(=O)N2CCOCC2)c(Cl)cc1Cl; target = Lysophosphatidic acid receptor 5 (LPAR5, Homo sapiens, UniProt Q9H1C0); assay = Ca2+ mobilization, antagonist; test system = B103; setting = added: LPA at EC50; IC50 = > 100 µM
Compound = COc1cc(/C=C/C(C)=N/O)ccc1OCC(=O)Nc1ccc(C)cc1; target = Peroxisome proliferator-activated receptor gamma (PPARG, Homo sapiens, UniProt P37231); assay = ligand displacement, TR-FRET; IC50 = 17.3 µM
Compound = Cc1ccc(C#N)c(=O)[nH]1; target = EGLN1; assay = ODDD peptide hydroxylation, inhibitor, MALDI-TOF MS; setting = pH 7.00, 37.0 °C, added: 2-oxoglutarate 10 µM; IC50 = > 1000 µM
Compound = O=C(N[C@@H](Cc1c[nH]c2ccccc12)C(=O)O)OCC1c2ccccc2-c2ccccc21; target = Bifunctional epoxide hydrolase 2, N-terminal phosphatase domain (Ephx2, Mus musculus, UniProt P34914); assay = N-terminal phosphatase activity; test system = mouse; setting = 10 min preincubation, added: AttoPhos 15 µM; IC50 = 4 µM
